Assay results gathered from unrelated publications.
Protocols differ between the studies behind these lines. Numbers after ± are the reported error.
Cell line: HL-60

Cn1c2ccc(Cl)c(=O)c-2nc2ccccc21
IC50 (cell growth or viability, CCK-8; 72 h): 3.56 µM

CCN(CC)CCN1C(=O)c2ccc3c4cccc5c(N6CCNCC6)ccc(c6ccc(c2c36)C1=O)c54
IC50 (cell growth or viability, SRB; 72 h): 4.8 µM

COc1cccc2c(=O)c3c(NCCCCCC(=O)Nc4ccccc4N)ccc([N+](=O)[O-])c3[nH]c12
IC50 (cell growth or viability, MTT; 72 h): 0.62 µM

CC(C)=CCn1c2ccc(Br)c(=O)c-2nc2ccccc21
IC50 (cell growth or viability, CCK-8; 72 h): 0.67 µM

Cc1cc(C=O)cc(C)c1Oc1cc(Nc2ccc(C#N)cn2)nc2ccncc12
IC50 (48 h): 41.1 ± 14.2 µM

C/C1=C\CC[C@@]2(C)O[C@H]2[C@H]2OC(=O)[C@@H](CSC(=S)N3CCCC3)[C@@H]2CC1
IC50 (cell growth or viability, MTT; 72 h): 7.7 µM

C=C1C(=O)OC2C1CCC1(C)CC1CCC1(C)OC21 (stereo not drawn)
IC50 (cell growth or viability, resazurin): 4.4 µM

O=C1c2ccc3c4cccc5c(N6CCNCC6)ccc(c6ccc(c2c36)C(=O)N1CCN1CCCCC1)c54
IC50 (cell growth or viability, SRB; 72 h): 50.9 µM

Cc1cccc2c(=O)c3c(NCCCCCCC(=O)Nc4ccccc4N)ccc([N+](=O)[O-])c3[nH]c12
IC50 (cell growth or viability, MTT; 72 h): 4.3 µM

CC(C)CCc1c(O)cc2oc3cc(O)c(O)c(CCC(C)C)c3c(=O)c2c1O
IC50 (cell growth or viability; 48 h): 13.7 µM

CSCCC(NC(C)=O)C(=O)O.[Ru+2].c1ccc(-c2cccc(-c3ccccn3)n2)nc1.c1ccc(-c2ccccn2)nc1
IC50 (cell viability; added: light 22 J/cm^2): > 100 µM

C/C1=C\CC[C@@]2(C)O[C@H]2[C@H]2OC(=O)[C@@H](CSC(=S)N3CCN(C)CC3)[C@@H]2CC1
IC50 (cell growth or viability, MTT; 72 h): 4.4 µM

Cc1cc(C=O)cc(C)c1Oc1cc(Nc2ccc(C#N)cc2)nc2ccncc12
IC50 (48 h): 18.2 ± 3.4 µM

O=C(O)c1ccc(-c2nc(-c3cccc(C(F)(F)F)c3)cs2)cc1
IC50 (cell growth or viability, ATP luminescence; 72 h): 0.71 µM

C/C1=C\CC[C@@]2(C)O[C@H]2[C@H]2OC(=O)[C@@H](CSC(=S)N(C)C)[C@@H]2CC1
IC50 (cell growth or viability, MTT; 72 h): 7.3 µM

COc1c(O)cc2oc3c(Br)c(O)c(CC=C(C)C)c(O)c3c(=O)c2c1CC=C(C)C
IC50 (cell growth or viability; 48 h): > 40 µM

C/C1=C\CC[C@@]2(C)O[C@H]2[C@H]2OC(=O)[C@@H](CSC(=S)N3CCCCC3)[C@@H]2CC1
IC50 (cell growth or viability, MTT; 72 h): 7.4 µM

Cc1cc(C#N)cc(C)c1Oc1cc(Nc2ccc(C#N)cn2)nc2ccncc12
IC50 (48 h): > 127 µM

COc1c(O)cc2oc3cc(O)c(CC=C(C)C)c(O)c3c(=O)c2c1CC=C(C)C
IC50 (cell growth or viability; 48 h): 15 µM

Cc1cc(C#N)cc(C)c1Oc1cc(Nc2ccc(C#N)cc2)nc2ccncc12
IC50 (48 h): > 128 µM

CCCCN(C)C(=S)SC[C@@H]1C(=O)O[C@H]2[C@H]1CC/C(C)=C/CC[C@@]1(C)O[C@@H]21
IC50 (cell growth or viability, MTT; 72 h): 11.3 µM

Cc1ccc(C(=O)C2Sc3nnc(-n4nc(C)cc4C)n3NC2c2ccc(Cl)cc2)cc1 (racemic)
IC50 (cell growth or viability, imaging; 72 h): > 100 µM

Cc1cc(C=O)cc(C)c1Oc1cc(Nc2ccc(C#N)cc2)nc2cnccc12
IC50 (48 h): 8.9 ± 2.1 µM

[Ru+2].c1ccc(-c2cccc(-c3ccccn3)n2)nc1.c1ccc2nc(-c3ccc4ccccc4n3)ccc2c1.c1cnccn1
IC50 (cell viability; added: light 22 J/cm^2): 17.7 ± 0.1 µM

COc1c(OC(C)=O)cc2oc3cc(OC(C)=O)c(CC=C(C)C)c(O)c3c(=O)c2c1CC=C(C)C
IC50 (cell growth or viability; 48 h): 11.9 µM

O=C(NCC1(c2nc(-c3ccccc3)cs2)CCOCC1)c1cccc(-c2noc(C(F)(F)F)n2)c1
IC50 (cell growth or viability, CCK-8; 5 days): > 10 µM

CCN(CC)CCN1C(=O)c2ccc3c4cccc5c(NCCN)ccc(c6ccc(c2c36)C1=O)c54
IC50 (cell growth or viability, SRB; 72 h): 7.4 µM

COc1c(O)cc2oc3cc4c(c(O)c3c(=O)c2c1CC=C(C)C)CC(O)O4 (stereo not drawn)
IC50 (cell growth or viability; 48 h): 15 µM

C(=C/c1ccccc1)/c1ccccc1
IC50 (cell growth or viability, ATP luminescence; 24 h): 32 µM

CCCCN(CCCC)C(=S)SC[C@@H]1C(=O)O[C@H]2[C@H]1CC/C(C)=C/CC[C@@]1(C)O[C@@H]21
IC50 (cell growth or viability, MTT; 72 h): 10.6 µM

COc1c(O)c(Br)c2oc3c(Br)c(O)c(CC=C(C)C)c(O)c3c(=O)c2c1CC=C(C)C
IC50 (cell growth or viability; 48 h): 16.9 µM

C/C1=C\CC[C@@]2(C)O[C@H]2[C@H]2OC(=O)[C@@H](CSC(=S)N(C)c3cccnc3)[C@@H]2CC1
IC50 (cell growth or viability, MTT; 72 h): 39.3 µM

COc1c(O)cc2oc3cc4c(c(O)c3c(=O)c2c1CC(O)C(C)(C)O)CC(O)O4 (stereo not drawn)
IC50 (cell growth or viability; 48 h): > 40 µM

CC1=C(Cn2c3ccc(Br)c(=O)c-3nc3ccccc32)CCC(C)(C)C1
IC50 (cell growth or viability, CCK-8; 72 h): 0.27 µM

COc1c(O)cc2oc3cc(O)c(CCC(C)C)c(O)c3c(=O)c2c1CCC(C)C
IC50 (cell growth or viability; 48 h): 11.1 µM

CSC[C@@H]1C(=O)O[C@H]2[C@H]1CC/C(C)=C/CC[C@@]1(C)O[C@@H]21
IC50 (cell growth or viability, MTT; 72 h): > 50 µM

Some of these lines once more:
Cc1cc(C=O)cc(C)c1Oc1cc(Nc2ccc(C#N)cn2)nc2ccncc12
IC50 (48 h): 41.1 ± 14.2 µM

COc1c(O)cc2oc3cc(O)c(CC=C(C)C)c(O)c3c(=O)c2c1CC=C(C)C
IC50 (cell growth or viability; 48 h): 15 µM

CCN(CC)CCN1C(=O)c2ccc3c4cccc5c(N6CCNCC6)ccc(c6ccc(c2c36)C1=O)c54
IC50 (cell growth or viability, SRB; 72 h): 4.8 µM

C=C1C(=O)OC2C1CCC1(C)CC1CCC1(C)OC21 (stereo not drawn)
IC50 (cell growth or viability, resazurin): 4.4 µM

CCN(CC)CCN1C(=O)c2ccc3c4cccc5c(NCCN)ccc(c6ccc(c2c36)C1=O)c54
IC50 (cell growth or viability, SRB; 72 h): 7.4 µM
